Published values pooled from the literature.
Each line is one published result; not all experiments were run side by side.
Target: Mitogen-activated protein kinase kinase kinase kinase 1 (MAP4K1, Homo sapiens, UniProt Q92918)

The remaining activity of `COc1cc(Nc2nc(C)cc(-c3cnn4nc(OC)ccc34)n2)cc(C(F)(F)F)c1` is reported as 86% (inhibitor; 1 µM, HPK1; baseline: control).
`C=CC(=O)N1CCCC(n2c(=O)c3ncccc3n(Cc3ccc(Oc4ccccc4)cc3)c2=O)C1` (stereo not drawn) gave a remaining binding of 92% (cell-free assay, competition with immobilised ligand; 1 µM).
For `CN1CC[C@@H](COc2cnc(C#N)cc2-c2ccn3nc(NC(=O)C4CC4)cc3c2)C1`, the inhibition was -9% (enzyme activity, inhibitor; 1 µM).
`COc1c(Cl)cccc1Nc1c(-c2ccncc2C#C[C@@]2(C)CCCN2C(=O)/C=C/CN(C)C)[nH]c2c1C(=O)NCC2` has a remaining binding of 100% (binding, competition with immobilised ligand; 3 µM).
With `Nc1ncc2c(n1)-c1c([nH]c3ccc(C4=CCOCC4)cc13)CCC2` the remaining binding was 93% (binding, competition with immobilised ligand; 1 µM).
For `COc1cc(-n2cc3cc(F)cc(C(N)=O)c3n2)cc(Cl)c1C1CC(O)(CCO)Cc2ccccc21` (stereo not drawn), the inhibition was 6.69% (enzyme activity, inhibitor; 10 µM).
With `C=CC(=O)N1CCc2ccc(-n3c(=O)ccc4cnc5ccc(-c6cnn(C)c6)cc5c43)cc21` the remaining binding was 98% (KINOMEscan; 1 µM; baseline: DMSO control).
With `NC(=O)[C@@H](O)C[C@H]1CCc2sc3ncnc(O[C@H]4CC[C@H](N5CCOCC5)CC4)c3c21` the inhibition was 17% (enzyme activity, inhibitor; 10 µM).
`CNC(=O)C[C@H](Cc1ccc(C#N)cc1)NC(=O)c1cc(-c2ccc(CN[C@H](C)c3ccc(C)cc3)o2)ccc1Cl`: “activity vs control” 106% (enzyme activity, inhibitor; 1 µM).
`CNC(=O)C1CCN(c2cc(C)c(F)cc2NC(=O)c2ccc(-c3cc(O)ccc3C)c(C)c2)CC1` gave a remaining binding of 100% (binding, competition with immobilised ligand; 1 µM).
`Cc1ccc(-c2c(/C=C(\C#N)C(=O)NC(C)C)n(CCCO)c3ncnc(N)c23)cc1` has a remaining binding of 90% (cell-free assay, competition with immobilised ligand; 1 µM).
Under “activity vs control”, `O=C(Cc1ccc(OCc2ccccc2)cc1)NC1(C(=O)O)CCN(C(=O)c2ccc(-c3cccc(Cl)c3)cc2)CC1` is recorded as 110% (enzyme activity, inhibitor; 10 µM).

For quick reference, copied from above:
With `NC(=O)[C@@H](O)C[C@H]1CCc2sc3ncnc(O[C@H]4CC[C@H](N5CCOCC5)CC4)c3c21` the inhibition was 17% (enzyme activity, inhibitor; 10 µM).
Under “activity vs control”, `O=C(Cc1ccc(OCc2ccccc2)cc1)NC1(C(=O)O)CCN(C(=O)c2ccc(-c3cccc(Cl)c3)cc2)CC1` is recorded as 110% (enzyme activity, inhibitor; 10 µM).
